Assay results gathered from unrelated publications.
Parts stem from different laboratories: compare values within a part only.

Set 1
Target: RNA binding protein fox-1 homolog 2, RRM domain, GST-SBP tag (RBFOX2, Homo sapiens, UniProt O43251-10, residues 100-194)
Technique: RNA Bind-n-Seq
Form: RNA
Sample: in vitro
Tested at: 365 nM
Setting: natural RNA segment, single round, ends assumed
Baseline: no-protein control
Direction: higher = stronger binding
Construct (chain): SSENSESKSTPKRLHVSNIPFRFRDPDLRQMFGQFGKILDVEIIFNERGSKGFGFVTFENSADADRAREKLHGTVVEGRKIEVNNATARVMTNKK
| Oligonucleotide | RBNS enrichment (R) |
| --- | --- |
| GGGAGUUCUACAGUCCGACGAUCGCUCUGAAGGAUCCUGGAACCACUGAUUUUGGUUUAUUCCCUCCAGGGUCUAAAGAGAACAAGAGGUGCUAGCUCUUACCAAAACAGAUGGUAGAGAGAGUUGCUGGCUAUGGAAUUCUCGGGUGCCAA | 0.354 |
| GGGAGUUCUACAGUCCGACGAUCCCAAGGGGUGGCAGCAUCACUCUGUUCUAGCAUUCUUUGUGGAGAUGGUCUGGUGCCUAGCUGGGAGUGAGCAGCAGCCCAUCCCCUGUUCACUUUCUCUAGCCCAUCAUUGGAAUUCUCGGGUGCCAA | 0.982 |
| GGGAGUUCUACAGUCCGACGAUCUCAUAUAUGUAUCCAUUCUGUAGAACACAUCAUGUUAAUAUAGUAUACAUUUAAAAAAAUACUACUUUUUAAAUGGUAGUUUUAAAAUAACAGUAUCUUACUUGUUGCCAUGGAAUUCUCGGGUGCCAA | 0.576 |
| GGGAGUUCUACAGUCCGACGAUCGACACUCGAGCCUCUGCUCUCACCUUGCCCUGUUUGGGUUUUUAUCAGCCGUGUCUGCAUUGGAGCCUCACUGCAGUGUUCCUGGUGGCUCCUCUUAACUCCUGCUGCUGUGGAAUUCUCGGGUGCCAA | 0.325 |
| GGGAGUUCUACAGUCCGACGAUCCAUGGGCAGCAAAUGGAAAGUCUUCCAAUCAGUACUCCAGGCCUUGAACACGUGCACACAUGAGUUCCAAUUUUGCUUCCUUUUGUUAUAAUGUUUCAACAAACAGAAGGUGGAAUUCUCGGGUGCCAA | 2.01 |
| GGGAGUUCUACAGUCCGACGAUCUCAAAGCCACCUACGGCAGGGACACACUCGUGAGCAUGUGUGGCCUGCAGUUCAGGUGAUACAUUUACCAGUGUUCUUGUUUGUGUGGUGCCAGGAAAUUGAUUUUGGAAUGGAAUUCUCGGGUGCCAA | 1.83 |
| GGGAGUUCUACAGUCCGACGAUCGAUGGAAAAUGCAUAUCACUUGACAGUUGACAAGAAAGUGUCAUUUUUGUGUUAGUGUAUCAUAUAAUUGAAUUUGAACAAGAUACAUAUUUUUCUGCAUACAAAUUUAUUGGAAUUCUCGGGUGCCAA | 1.28 |
| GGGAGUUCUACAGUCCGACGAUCGCGUGGCCGUGUCUGUGUAUUUCUACGUGUGUCGCUCUUCAGAAGCAACCUAGUUCCUGGGGCAGCUGGACUUUGCAUGUUAGUGUGAGCCCCCAGCCCCCUGCCCGCCGUGGAAUUCUCGGGUGCCAA | 1.98 |
| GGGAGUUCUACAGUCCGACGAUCCAAAUUGGCAUCUCAUUCUACCUCUAAACCACUGGGUUGGUAUGGGUAUGAAUGCUCAGAGCUCACCCGAGCAUGCUGGUAGAGUCAGGGUGUGUAUUUAGUCACCAACCUGGAAUUCUCGGGUGCCAA | 3.01 |
| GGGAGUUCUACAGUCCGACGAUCGGAAAUAAUUUGAGUUGAUUCAGAAAUCCUGGCAUGUGACAAUUUUGUUAAAUUACCAAGUUUGGUUUUUAAUAAUUUCUCAAUAUUAUGCGCCAAGAUCUAAUUUUAAAUGGAAUUCUCGGGUGCCAA | 0.775 |
| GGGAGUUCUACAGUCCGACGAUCUUUUAGGAAUACGGGGAGUGAAGGAAGGCCGGCAGGCAUCUCCAUGCAACUAGAUGGUUUGUUUGUUUGUUUGUUUGUUUGUUGUUCAUUUUGUUGUGUUUUUUGAGACAUGGAAUUCUCGGGUGCCAA | 10.8 |
| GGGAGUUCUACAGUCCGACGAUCCUGUCUUAAGAGACUACUGGUUCAGCUCCAGGCCUCUGAAAGACAUGUUAUUUCUUCCUCACAUCCAUCCAGUGGGGAGGACCCUCUGACUUAAGGGACCACCUUGGGAAUGGAAUUCUCGGGUGCCAA | 0.215 |

Set 2
Target: RING finger protein unkempt homolog, zinc fingers 1-6, GST-SBP tag (UNK, Homo sapiens, UniProt Q9C0B0, residues 30-357)
Technique: RNA Bind-n-Seq
Form: RNA
Sample: in vitro
Tested at: not given
Setting: RNA with constant flanks, human-mouse chimeric sites, ends assumed
Baseline: input RNA pool
Direction: higher = stronger binding
Construct (chain): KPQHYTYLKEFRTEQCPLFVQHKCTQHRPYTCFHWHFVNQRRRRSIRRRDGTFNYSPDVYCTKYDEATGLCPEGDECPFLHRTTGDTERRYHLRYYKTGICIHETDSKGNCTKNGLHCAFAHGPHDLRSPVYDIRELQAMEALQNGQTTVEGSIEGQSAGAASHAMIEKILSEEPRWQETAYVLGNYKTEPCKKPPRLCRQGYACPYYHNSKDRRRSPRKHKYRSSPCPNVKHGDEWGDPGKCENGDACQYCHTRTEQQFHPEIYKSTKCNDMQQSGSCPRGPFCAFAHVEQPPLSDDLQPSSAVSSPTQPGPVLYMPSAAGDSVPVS
| Oligonucleotide | bound/input enrichment [ratio] |
| --- | --- |
| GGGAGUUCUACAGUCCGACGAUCGAUGAUAAUCACACAAACAAGUCACUGUUAUGUGACCAGCCUUGGGAUUCUUUUCCUGAUUAAUAUUCUCCCUGGAACCACUAGCCAAGGGGAAUCAAGACGACAAGAACCCGGGGACUUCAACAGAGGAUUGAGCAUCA | 0.193 |
| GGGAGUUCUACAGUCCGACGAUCGUAAUGUUUAUUCAUUUAACUUAUUUUUAUAGCUAGAUAAAUAUUGUUAGUCUUAGACAAUAGCUCACAUUUUUUGAGAAGCAUGCCCUCCCUGUCCAUUUGUCUUAUAACAUGACCCAGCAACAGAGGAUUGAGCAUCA | 13.6 |
| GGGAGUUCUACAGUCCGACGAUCUCUUAACUUAUUCAUUUAACUUAUUUUUAGCACUUAGUAAAUAUUGUUAGUCUUAGACAAUAGCUCACAUUUUUUGAGAAGCAUGCCCUCCCUGUCCAUUUGUCUUAUAACAUGACCCAGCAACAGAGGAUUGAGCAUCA | 438 |
| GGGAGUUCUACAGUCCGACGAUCUUUCUACUGCAGCAGACGAUGCUAAGAAUUAAGGAUCCUAAGAAGUCCCUGGAUUUUUAUACGAGGGUUCUUGGAAUGACCCUCCUGCAGAAGCUUGACUUCCCUGCUAUGAAGUUCUCGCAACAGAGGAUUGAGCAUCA | 0.101 |
| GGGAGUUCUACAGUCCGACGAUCCUGAGGAUACCACUGAAGAGACCUUAAAAGAAUCAUUUGAGGGCUCUCGUUCGGGCAGAAUAGUCACCUGACCGGGAACUGGUUCUUCCAAAGGGUUUGGUUUUGUAGACUUUAAUAGUGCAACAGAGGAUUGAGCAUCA | 0.608 |
| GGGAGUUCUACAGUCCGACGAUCGUGUCCUGCUUUCAACUUAAAUCACUGAGGCAUCUCUACUAUUCUGUGAGCAUCAGGACUGUAGCGCUUGCCACCACCAUGAGAGUUCAGAAGCAGCCUUUCUGUGGAGGGUGGGAAUGACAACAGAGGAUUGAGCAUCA | 0.162 |
| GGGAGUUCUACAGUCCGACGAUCUUGAAAACUGAUUCAAGUAAGUUUGAGUAUCACAAUGUUAGCUUUCUAAUUCCAUAAAAGUACUUGGUACAGUUUCUAACCCCACAUACAUCACCCCAGCGCCAUUUGUAAAGAGCAACUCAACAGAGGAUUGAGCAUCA | 0.616 |
| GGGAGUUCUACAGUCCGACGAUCAUGGAACAUUUCGAUGCGUCACUCAGUACCUAUUUCAAGGCCUUCCUGGGCCCCCGAGAUACAAGAGUAAAAGGAUGGUUUCUUCUGGACAAUUACAUCCCUACGUUUGUCUGUUCUGUUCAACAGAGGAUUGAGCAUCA | 0.104 |
| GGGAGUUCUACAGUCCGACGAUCACACAAUAUGAGACCAACAGCAUGGACUUCAAAGUUGGGGCGGAUGGGACAGUCUUCGCCACCCGGGAGCUGCAGGUCCCCUCCGAGCAGGUGGCGUUCACGGUGACUGCGCGGGAAAGCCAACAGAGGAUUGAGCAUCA | 0.218 |
| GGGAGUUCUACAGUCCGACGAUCAGGAGGAGGUUAAAGGGUGAGAGUGGGGUGGAAGACUGUGUCAUGGCCCUAGAAACCCUGUUCAGUGUCCUGCUUUCUCUUUGCAGACUGAUGGCCCCUUACACGCCCUUUCUGACUGAGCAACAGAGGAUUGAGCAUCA | 0.0487 |
| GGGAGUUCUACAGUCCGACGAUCGGUGGGGUGGUCAUUGCCGUUUGAGCUGCUGAUUUUCAUGAGUCGCCUUCAAAACUCUCGCAUAGGGUUGACAAUGUGGGGGGGUGGGAAAUCUAGCUUAUUCUUUUAUUUUCAAGUCCACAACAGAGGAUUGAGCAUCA | 8.62 |

Set 3
Target: Prothrombin, mature alpha-thrombin (F2, Homo sapiens, UniProt P00734)
Technique: aptamer microarray, sandwich
Form: DNA with 2'F-ANA
Sample: in vitro
Tested at: 200 nM
Setting: whole 15-mer aptamer, many near background
Together with: Cy3 exosite-II aptamer, 400 nM
Direction: higher = stronger binding
Oligonucleotide: GGTTGGTGTGGTTGG
| Modification | mean fluorescence intensity |
| --- | --- |
| 2'F-ANA at 5 6 9 13 15 | 53.4 a.u. |
| 2'F-ANA at 1 3 4 10 15 | 66.6 a.u. |
| 2'F-ANA at 2 5 6 7 8 13 15 | 87.9 a.u. |
| 2'F-ANA at 1 3 5 6 7 8 11 12 | 108 a.u. |
| 2'F-ANA at 1 3 5 6 7 9 11 12 13 15 | 88.8 a.u. |
| 2'F-ANA at 1 5 6 7 9 11 12 15 | 89.8 a.u. |
| 2'F-ANA at 1 2 5 7 9 11 12 15 | 88.3 a.u. |
| 2'F-ANA at 3 4 5 8 9 10 11 12 13 14 15 | 58.8 a.u. |
| 2'F-ANA at 1 4 6 7 8 9 10 11 13 | 70.2 a.u. |
| 2'F-ANA at 1 2 4 5 8 11 14 | 85.2 a.u. |
| 2'F-ANA at 2 9 12 13 14 15 | 210 a.u. |
| 2'F-ANA at 5 8 9 10 13 15 | 67.1 a.u. |
| 2'F-ANA at 3 4 5 7 8 9 10 12 13 | 55.1 a.u. |
| 2'F-ANA at 5 6 7 8 14 | 48.3 a.u. |
| 2'F-ANA at 1 3 5 6 7 8 13 14 | 48.4 a.u. |
| 2'F-ANA at 2 3 5 6 7 10 13 14 | 44.4 a.u. |
| 2'F-ANA at 2 6 9 11 12 | 512 a.u. |
| 2'F-ANA at 3 4 5 6 9 11 14 | 50 a.u. |
| 2'F-ANA at 1 2 3 4 6 9 11 12 14 | 58.9 a.u. |
| 2'F-ANA at 1 3 4 9 15 | 189 a.u. |
| 2'F-ANA at 1 2 4 5 7 10 12 | 50.7 a.u. |
| 2'F-ANA at 1 3 4 10 11 13 14 15 | 52 a.u. |
| 2'F-ANA at 1 4 7 9 10 12 15 | 59.3 a.u. |
| 2'F-ANA at 2 4 5 6 10 12 15 | 58 a.u. |
| 2'F-ANA at 2 4 5 9 12 15 | 157 a.u. |

Set 4
Target: Sal-like protein 4, full length isoform B (SALL4, Homo sapiens, UniProt Q9UJQ4-2, residues 1-616)
Technique: universal PBM
Form: double-stranded DNA, one strand shown
Sample: in vitro
Tested at: not given
Setting: 8-mer, flanks averaged, mean of replicates
Direction: higher = stronger binding
Construct (chain): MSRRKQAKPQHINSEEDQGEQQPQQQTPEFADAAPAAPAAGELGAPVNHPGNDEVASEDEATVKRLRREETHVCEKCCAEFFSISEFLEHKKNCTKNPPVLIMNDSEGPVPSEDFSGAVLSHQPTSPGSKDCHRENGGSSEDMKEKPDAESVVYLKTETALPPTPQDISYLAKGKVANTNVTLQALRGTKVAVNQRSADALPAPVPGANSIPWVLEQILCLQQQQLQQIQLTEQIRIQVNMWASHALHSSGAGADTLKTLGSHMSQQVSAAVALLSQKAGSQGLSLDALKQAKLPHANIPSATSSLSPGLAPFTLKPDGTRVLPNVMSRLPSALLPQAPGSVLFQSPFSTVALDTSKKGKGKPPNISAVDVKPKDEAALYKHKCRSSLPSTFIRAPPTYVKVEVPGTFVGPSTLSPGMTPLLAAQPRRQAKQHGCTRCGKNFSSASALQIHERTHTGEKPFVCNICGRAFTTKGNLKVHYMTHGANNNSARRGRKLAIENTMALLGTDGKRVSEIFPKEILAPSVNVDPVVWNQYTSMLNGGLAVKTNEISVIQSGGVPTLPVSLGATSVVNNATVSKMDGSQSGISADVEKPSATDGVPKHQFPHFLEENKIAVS
| Oligonucleotide | E-score |
| --- | --- |
| CTTGACAA | 0.134 |
| AAGCTTCC | 0.0432 |
| AGGCCGGC | -0.213 |
| CAACTAAG | -0.112 |
| CAGACAAA | 0.0866 |
| GGGCTTCA | -0.215 |
| CGAATTCC | -0.0477 |
| AATGGCCC | -0.298 |
| CGCATGGA | -0.219 |
| CCTCTGCA | -0.0863 |
| ACGAGGCT | 0.0526 |
| GGCCTATA | -0.0232 |
| CGCTACAG | -0.0808 |
| CCAGCACG | -0.207 |
| ACTCACAT | 0.0796 |
| ATTCTCCG | -0.0626 |
| CAGACATC | 0.0591 |
| GCCTTCAA | -0.0946 |
| ACGAATCG | -0.0659 |
| ACAATTTC | 0.247 |
| GCCATGTA | 0.0688 |
| CGACTTTA | 0.0599 |
| ACAAAAGT | 0.129 |
